Measured values from different studies.
“And” joins repeats or separate records; there may be more than shown. ± gives the spread as reported.
rep nsp13 helicase: Replicase polyprotein 1ab, nsp13 helicase (rep, Severe acute respiratory syndrome coronavirus 2, UniProt P0DTD1)
rep papain-like protease: Replicase polyprotein 1ab, papain-like protease (rep, Severe acute respiratory syndrome coronavirus 2, UniProt P0DTD1)
rep main protease: Replicase polyprotein 1ab, main protease (rep, Severe acute respiratory syndrome coronavirus 2, UniProt P0DTD1)
rep nsp12 with nsp14/nsp10: Replicase polyprotein 1ab, nsp12 with nsp14/nsp10 (rep, Severe acute respiratory syndrome coronavirus 2, UniProt P0DTD1)
Spike glycoprotein: Spike glycoprotein (Severe acute respiratory syndrome coronavirus 2, UniProt P0DTC2)

SMILES	tested on	assay	test system	conditions	measurement	value
Nc1ncnc2c([C@@H]3N[C@H](CO)[C@@H](O)[C@H]3O)c[nH]c12	Lassa mammarenavirus	viral replication	HeLa, Josiah	1.6 µM	inhibition	0%
CNC(=O)[C@@H](NC(=O)[C@H](CC(C)C)[C@H](O)C(=O)NO)C(C)(C)C	–	–	PB population, mouse	intravenous, 60 µg/mouse, 24 h, preincubated with venom, together with: Daboia russelii venom 2.5 x LD50	survival	0%
O=C(CSC(=S)N1CCCC1)c1cc(Br)cc(Br)c1O	rep nsp13 helicase	helicase ATPase activity, inhibitor, Kinase-Glo luminescence	–	–	IC50	> 150 µM
CCC(C(=O)Nc1cc(NC2CCOC2)ccc1C)n1cc(Br)cc2nc(SCc3ccc(F)cc3)nc1-2 (stereo not drawn)	rep papain-like protease	binding	–	–	Kd	1460 ± 117 nM
COc1ccc(N(Cc2cc(Cl)cs2)C(=O)Cc2cncc3ccccc23)cc1	rep main protease	enzyme activity, inhibitor	–	–	Ki	3700 nM
COc1ccc(/C=N\NC(=O)c2cc(O)c(O)c(O)c2)cc1COc1ccc(C(=O)OCC(C)C)cc1	rep nsp13 helicase	helicase ATPase activity, inhibitor, Kinase-Glo luminescence	–	60 min, together with: 2.5 µM ATP	IC50	3 µM
O=C(O)c1ccccc1-c1c2cc(Br)c(=O)cc-2oc2[c]([Hg+])c(O)c(Br)cc12	rep main protease	binding, ITC	–	25 °C, main binding site	Kd	1330 nM
Nc1nc(F)nc2c1ncn2[C@@H]1O[C@H](CO)[C@@H](O)[C@@H]1O	rep nsp12 with nsp14/nsp10	RdRp activity, inhibitor, CoV-RdRp-Gluc reporter	HEK293T, SARS-CoV-2	with proofreading, together with: nsp7, nsp8, nsp10 and nsp14	EC50	12.2 µM
CC[C@H](C)[C@H](NC(=O)[C@H](CC(C)C)NC(=O)[C@H](Cc1c[nH]c2ccccc12)NC(=O)[C@H](CCC(N)=O)NC(=O)[C@@H](NC(=O)[C@H](Cc1ccccc1)NC(=O)[C@H](C)NC(=O)[C@H](CCCCNC(=O)COCCOCCNC(=O)COCCOCCNC(=O)CC[C@H](NC(=O)CCCCCCCCCCCCCCCCCCC(=O)O)C(=O)O)NC(=O)[C@H](CCC(N)=O)NC(=O)[C@H](C)NC(=O)[C@@H](NC(=O)[C@H](CCCCN)NC(=O)[C@H](CC(=O)O)NC(=O)[C@H](CC(C)C)NC(=O)C(C)(C)NC(=O)[C@@H](NC(=O)[C@H](CO)NC(=O)[C@H](Cc1ccc(O)cc1)NC(=O)[C@H](CC(=O)O)NC(=O)[C@H](CO)NC(=O)[C@@H](NC(=O)[C@H](Cc1ccccc1)NC(=O)[C@@H](NC(=O)CNC(=O)[C@H](CCC(=O)O)NC(=O)C(C)(C)NC(=O)[C@@H](N)Cc1ccc(O)cc1)[C@@H](C)O)[C@@H](C)O)[C@@H](C)CC)[C@@H](C)CC)C(C)C)C(=O)N[C@@H](C)C(=O)NCC(=O)NCC(=O)N1CCC[C@H]1C(=O)N[C@@H](CO)C(=O)N[C@@H](CO)C(=O)NCC(=O)N[C@@H](C)C(=O)N1CCC[C@H]1C(=O)N1CCC[C@H]1C(=O)N1CCC[C@H]1C(=O)N[C@@H](CO)C(N)=O	–	–	healthy subjects, single ascending dose	8.0 mg, baseline	serum lipase	38.1 ± 19.4 U/L
Cc1cc(NC(=O)Cc2cccs2)no1	rep nsp13 helicase	helicase ATPase activity, inhibitor, Kinase-Glo luminescence	–	–	IC50	29 µM
O=c1c(O)c(-c2ccc(O)cc2)oc2c(O)c(O)cc(O)c12	rep main protease	inactivator	–	37 °C	Ki	7460 nM
O=c1cc(-c2ccc(O)cc2)oc2cc(O)c(O)c(O)c12	Spike glycoprotein	binding, BLI	–	–	Kd	52300 nM
Nc1nc(F)nc2c1ncn2[C@@H]1O[C@H](COP(=O)(O)O)[C@@H](O)[C@@H]1O	rep nsp12 with nsp14/nsp10	RdRp activity, inhibitor, CoV-RdRp-Gluc reporter	HEK293T, SARS-CoV-2	with proofreading, together with: nsp7, nsp8, nsp10 and nsp14	EC50	6.69 µM
CC(C)(C)c1ccc(N(Cc2cc(Cl)cs2)C(=O)Cc2cncc3ccccc23)cc1	rep main protease	enzyme activity, inhibitor	–	–	Ki	1900 nM
C[C@@H]1[C@H](O)[C@@H](C)/C=C/C=C/CC/C=C/C=C/C=C/C=C/C(O[C@H]2O[C@H](C)[C@@H](O)[C@H](N)[C@@H]2O)CC2O[C@](O)(CC(O)C(O)CCC(O)CC(O)CC(O)CC(=O)O[C@H]1C)CC(O)C2C(=O)O (stereo partly drawn)	Spike glycoprotein	binding, biolayer interferometry	–	–	Kd	25400 nM
CC(=O)Nc1ccc(-c2cnc(/N=C\c3cc4ccccc4nc3Cl)s2)cc1	rep papain-like protease	papain-like protease activity, inhibitor	SARS-CoV-2	15 min, 37 °C, together with: substrate 40 µM	Ki	1200 nM and < 2000 nM
CCC(C(=O)Nc1cc(NC2CCNC2)ccc1C)n1cccc2nc(SCc3ccc(F)cc3)nc1-2 (stereo not drawn)	rep papain-like protease	binding	–	–	Kd	253 ± 20 nM
C=CS(=O)(=O)N(c1ccc(C(C)(C)C)cc1)C(C(=O)NC1CCCCC1)c1cccnc1 (stereo not drawn)	rep main protease	inhibitor, ITC, two-step reversible model	–	–	Ki	4500 ± 300 nM
CC(C)C[C@H](NC(=O)OCc1ccccc1)C(=O)N[C@@H](CC(C)C)C(=O)N[C@@H](CC1CCNC1=O)C(=O)C(=O)NC1CC1 (stereo partly drawn)	rep main protease	enzyme activity, inhibitor, FRET	–	–	Ki	13.2 nM
Nc1nc2c(ncn2[C@H]2C[C@H](O)[C@@H](CO)O2)c(=S)[nH]1	rep nsp12 with nsp14/nsp10	RdRp activity, inhibitor, CoV-RdRp-Gluc reporter	HEK293T, SARS-CoV-2	with proofreading, together with: nsp7, nsp8, nsp10 and nsp14	EC50	8.68 µM
Cn1cnc(Cn2c(=O)[nH]/c(=N\c3cc4cn(C)nc4cc3Cl)n(Cc3cc(F)c(F)cc3F)c2=O)n1	–	–	human, mild renal impairment	oral, 375 mg	any TEAE, severe severity	0%
